Published values collected from several papers.
Each numbered part is a random draw from the data of one study; scales do not carry over between parts. Positions count from the first letter of the parent shown.

Sample 1 — method: protein binding microarray; form: double-stranded DNA, one strand shown; sample: in vitro; concentration: not given; relative to: not given; reading: higher = stronger binding
Target: Histone acetyltransferase KAT6A, both winged helices, GST fusion (KAT6A, Homo sapiens, UniProt Q92794, residues 1-181)
Setting: 8-mer, flanks averaged, mean of 2 arrays, mostly near background
Construct (chain): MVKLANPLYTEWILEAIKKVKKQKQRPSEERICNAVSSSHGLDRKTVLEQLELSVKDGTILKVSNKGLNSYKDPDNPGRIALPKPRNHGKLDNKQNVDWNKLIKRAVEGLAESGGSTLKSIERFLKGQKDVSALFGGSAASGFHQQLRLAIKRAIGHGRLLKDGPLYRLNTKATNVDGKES
Oligonucleotide | E-score
GCGAGAAC | 0.1
CTAATAAA | -0.0632
GAGGAAGC | -0.0193
CCGATGCA | 0.0789
TATTGCGA | 0.026
AGCAGAAG | -0.0538
CGTGCAAG | 0.0973
GTCGACAC | 0.0316
CAAGTGTG | -0.197
ATACTAGA | -0.085
ATACGTAG | -0.0224
CTAGAAGC | 0.0121
ATACCCGA | 0.162
GAAGTCAC | -0.0202
CAGCCAAA | -0.16
AGCAAGAA | -0.113

Sample 2 — target: CCNF, cyclin fold, Cln2 fusion (human); method: yeast growth competition, sequencing; sample: yeast; setting: strong parent motif; relative to: not given; reading: higher = stronger binding
Starting sequence: CDKN1A docking peptide (human); SKACRRLFGPVDS
Variant | normalised enrichment score
P10S | 7.2
C4L | 1.55
C4E | 0.705
G9H | 7.23
R5I | 0.909
D12Y | 7.43
C4A | 6.12
L7I | 3.63
V11D | 8.2
K2T | 7.63
G9C | 6.82
L7V | 1.24
D12R | 6.52
F8G | 0.265
A3C | 7.76
K2L | 6.98

Sample 3 — method: RNA Bind-n-Seq; form: RNA; sample: in vitro; concentration: 365 nM; relative to: no-protein control; reading: higher = stronger binding
Target: RNA binding protein fox-1 homolog 2, RRM domain, GST-SBP tag (RBFOX2, Homo sapiens, UniProt O43251-10, residues 100-194)
Setting: natural RNA segment, single round, ends assumed
Shared flanks, not repeated: GGGAGUUCUACAGUCCGACGAUC … UGGAAUUCUCGGGUGCCAA
Construct (chain): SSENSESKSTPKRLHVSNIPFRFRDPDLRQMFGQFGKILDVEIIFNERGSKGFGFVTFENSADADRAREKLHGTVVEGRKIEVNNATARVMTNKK
Oligonucleotide | RBNS enrichment (R)
UCACUGUUUUUCACUUUUCACUUCUGGCUUUUUUGUGGCCCAAGGCCAAUAUAGGAUUAAUAUCUGUGUUCCAGCUUCAGCCAGAACGAUAUGUCUGUCCAUCUUUCUCC | 0.524
UGUUUUCAAAUAAAUGUAGAUCUUGAGCAUGAUGUGUUCUGUAUAAUUUUAAUAGAUAAUAAUCAUAAAAUAUGUAGAACAUUUUGUCAAUUUGCAAGAUAAGUUAUGGG | 2.09
UAAAGAUUCCUGGCAUACAGGCCUGCUCUAUAAAUUUGUUUUCCCCUUCCCUGCCAGCAGUCUUCUCCAUACACGACAGGGCGUGUUCUCCACCAGGCCUGUAACAUCUU | 0.899
CUCUAGUGUUCAGUUGUUGAUGUGCCCCUGCCCACUGCCUGCUCGAGGAAUACCUCUGUUCUACCCAGAAGGAGGGAGGGACAGCUUAGUAGCCCUAGGAAGGAGCUGAG | 0.632
GGGCUGCAAGAGCAAAGAGGAAUAUCGUCUAAAGAUUUCUCUAUAUAUUUAAAACCCACAACUAAAACACAUCUGCAUAAUAGUGUUUGUUUGUUGAGAGGAUUUCCUGA | 0.976
CUUCAUUGUUAUAUUGCAGUAAAAGUUUUAAAACAACCAUUGCAUGUUUGCUUUUGAUGUAUCCCUUUGUGAAAUUAGCACUUUUGGGGCCAAUGGAGAAAUGCAGCAUU | 1.92
GUAGGAUUCAAAUGUGUGUCAUUUAGAAGUGGAAGCUAUUAGCACCAAUGACAUAAAUACAUACAAGACACACAACUAAAAUGUCAUGUUAUUAACAGUUAUUAGGUUGU | 0.315
UCCCCGGGAUGGACCAGGGGCUGCAGGGUGCCUGCAUGGGGGAACGCCGGAGAAUUACCAUCCCCCCGCACCUCGCCUAUGGGGAGAAUGGAACUGGUAGGGGCGUUCCC | 2.01

Sample 4 — method: aptamer microarray, sandwich; form: DNA with 2'F-ANA; sample: in vitro; concentration: 200 nM; together with: Cy3 exosite-II aptamer, 400 nM; reading: higher = stronger binding; oligonucleotide: GGTTGGTGTGGTTGG
Target: Prothrombin, mature alpha-thrombin (F2, Homo sapiens, UniProt P00734)
Setting: whole 15-mer aptamer, many near background
Modification | mean fluorescence intensity [a.u.]
2'F-ANA at 2 3 6 11 12 15 | 792
2'F-ANA at 2 5 6 12 14 | 45.6
2'F-ANA at 4 5 7 8 9 10 11 15 | 55.3
2'F-ANA at 1 3 5 6 9 10 11 14 15 | 59.3
2'F-ANA at 2 4 6 7 8 9 10 11 14 | 61.4
2'F-ANA at 1 2 3 6 10 11 | 56.5
2'F-ANA at 1 2 3 6 8 11 12 14 15 | 83.8
2'F-ANA at 3 4 8 9 13 15 | 583
2'F-ANA at 5 10 11 13 14 15 | 87.4
2'F-ANA at 2 3 8 12 15 | 1130
2'F-ANA at 1 4 7 12 13 14 15 | 55.7
2'F-ANA at 1 6 9 12 13 14 | 76.6
2'F-ANA at 3 4 5 9 12 15 | 189
2'F-ANA at 3 4 7 9 13 14 | 301
2'F-ANA at 1 3 4 7 10 12 13 | 71.6
2'F-ANA at 4 7 12 13 | 428
2'F-ANA at 1 2 3 5 6 12 | 108
2'F-ANA at 1 3 4 8 9 10 13 14 | 50.1
2'F-ANA at 1 2 4 5 8 9 11 14 15 | 48
2'F-ANA at 1 7 9 11 12 13 15 | 226

Excerpt of the above (sample 4):
Modification | mean fluorescence intensity [a.u.]
2'F-ANA at 1 2 3 6 10 11 | 56.5
2'F-ANA at 1 2 3 6 8 11 12 14 15 | 83.8
2'F-ANA at 3 4 8 9 13 15 | 583
2'F-ANA at 5 10 11 13 14 15 | 87.4
2'F-ANA at 2 3 8 12 15 | 1130
